Results pooled from the literature.
Compare with care: the assays were run in different laboratories. ± marks the error that the study gave.
U2AF2: U2AF2 148-342 (Homo sapiens, UniProt P26368)
UniProt P26368, sequence (whole entry, looked up): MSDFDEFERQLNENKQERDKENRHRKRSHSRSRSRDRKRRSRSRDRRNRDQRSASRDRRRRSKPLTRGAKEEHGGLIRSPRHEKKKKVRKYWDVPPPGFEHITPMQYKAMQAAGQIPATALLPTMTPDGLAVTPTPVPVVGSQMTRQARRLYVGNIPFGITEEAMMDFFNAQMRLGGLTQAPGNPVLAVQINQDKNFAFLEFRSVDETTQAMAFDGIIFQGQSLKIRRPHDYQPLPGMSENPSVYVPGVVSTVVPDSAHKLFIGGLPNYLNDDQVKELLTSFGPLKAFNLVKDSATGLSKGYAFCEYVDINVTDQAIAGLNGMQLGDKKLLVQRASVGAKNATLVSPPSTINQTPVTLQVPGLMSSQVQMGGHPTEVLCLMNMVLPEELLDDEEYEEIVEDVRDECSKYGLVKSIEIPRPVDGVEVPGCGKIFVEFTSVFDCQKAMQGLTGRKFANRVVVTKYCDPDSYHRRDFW
B1: human P4HA1; sequence looked up; chain HPGFFTSIGQMTDLIHTEKDLVTSLKDYIKAEEDKLEQIKKWAEKLDRLTSTATKDPEGFVGHPVNAFKLMKRLNTEWSELENLVLKDMSDGFISNLTIQRQYFPNDEDQVGAAKALLRLQDTYNLDTDTISKGNLPGVKHKSFLTAEDCFELGKVAYTEADYYHTELWMEQALRQLDEGEISTIDKVSVLDYLSYAVYQQGDLDKALLLTKKLLELDPEHQRANGNLKYFEYIMAKEKDVNKSASDDQSDQKTTPKKKGVAVDYLPERQKYEMLCRGEGIKMTPRRQKKLFCRYHDGNRNPKFILAPAKQEDEWDKPRIIRFHDIISDAEIEIVKDLAKPRLRRATISNPITGDLETVHYRISKSAWLSGYENPVVSRINMRIQDLTGLDVSTAEELQVANYGVGGQYEPHFDFARKDEPDAFKELGTGNRIATWLFYMSDVSAGGATVFPEVGASVWPKKGTAVFWYNLFASGEGDYSTRHAACPVLVGNKWVSNKWLHERGQEFRRPCTLSELE
B2: human AP2A2; sequence looked up; chain MPAVSKGDGMRGLAVFISDIRNCKSKEAEIKRINKELANIRSKFKGDKALDGYSKKKYVCKLLFIFLLGHDIDFGHMEAVNLLSSNRYTEKQIGYLFISVLVNSNSELIRLINNAIKNDLASRNPTFMGLALHCIASVGSREMAEAFAGEIPKVLVAGDTMDSVKQSAALCLLRLYRTSPDLVPMGDWTSRVVHLLNDQHLGVVTAATSLITTLAQKNPEEFKTSVSLAVSRLSRIVTSASTDLQDYTYYFVPAPWLSVKLLRLLQCYPPPDPAVRGRLTECLETILNKAQEPPKSKKVQHSNAKNAVLFEAISLIIHHDSEPNLLVRACNQLGQFLQHRETNLRYLALESMCTLASSEFSHEAVKTHIETVINALKTERDVSVRQRAVDLLYAMCDRSNAPQIVAEMLSYLETADYSIREEIVLKVAILAEKYAVDYTWYVDTILNLIRIAGDYVSEEVWYRVIQIVINRDDVQGYAAKTVFEALQAPACHENLVKVGGYILGEFGNLIAGDPRSSPLIQFHLLHSKFHLCSVPTRALLLSTYIKFVNLFPEVKPTIQDVLRSDSQLRNADVELQQRAVEYLRLSTVASTDILATVLEEMPPFPERESSILAKLKKKKGPSTVTDLEDTKRDRSVDVNGGPEPAPASTSAVSTPSPSADLLGLGAAPPAPAGPPPSSGGSGLLVDVFSDSASVVAPLAPGSEDNFARFVCKNNGVLFENQLLQIGLKSEFRQNLGRMFIFYGNKTSTQFLNFTPTLICSDDLQPNLNLQTKPVDPTVEGGAQVQQVVNIECVSDFTEAPVLNIQFRYGGTFQNVSVQLPITLNKFFQPTEMASQDFFQRWKQLSNPQQEVQNIFKAKHPMDTEVTKAKIIGFGSALLEEVDPNPANFVGAGIIHTKTTQIGCLLRLEPNLQAQMYRLTLRTSKEAVSQRLCELLSAQF
B3: human matrin-3; sequence looked up; chain SKSFQQSSLSRDSQGHGRDLSAAGIGLLAAATQSLSMPASLGRMNQGTARLASLMNLGMSSSLNQQGAHSALSSASTSSHNLQSIFNIGSRGPLPLSSQHRGDADQASNILASFGLSARDLDELSRYPEDKITPENLPQILLQLKRRRTEEGPTLSYGRDGRSATREPPYRVPRDDWEEKRHFRRDSFDDRGPSLNPVLDYDHGSRSQESGYYDRMDYEDDRLRDGERCRDDSFFGETSHNYHKFDSEYERMGRGPGPLQERSLFEKKRGAPPSSNIEDFHGLLPKGYPHLCSICDLPVHSNKEWSQHINGASHSRRCQLLLEIYPEWNPDNDTGHTMGDPFMLQQSTNPAPGILGPPPPSFHLGGPAVGPRGNLGAGNGNLQGPRHMQKGRVETSRVVHIMDFQRGKNLRYQLLQLVEPFGVISNHLILNKINEAFIEMATTEDAQAAVDYYTTTPALVFGKPVRVHLSQKYKRIKKPEGKPDQKFDQKQELGRVIHLSNLPHSGYSDSAVLKLAEPYGKIKNYILMRMKSQAFIEMETREDAMAMVDHCLKKALWFQGRCVKVDLSEKYKKLVLRIPNRGIDLLKKDKSRKRSYSPDGKESPSDKKSKTDGSQKTESSTEGKEQEEKSGEDGEKDTKDDQTEQEPNMLLESEDELLVDEEEAAALLESGSSVGDETDLANLGDVASDGKKEPSDKAVKKDGSASAAAKKKLKKVDKIEELDQENEAALENGIKNEENTEPGAESSENADDPNKDTSENADGQSDENKDDYTIPDEYRIGPYQPNVPVGIDYVIPKTGFYCKLCSLFYTNEEVAKNTHCSSLPHYQKLKKFLNKLAEERRQKKET
B4: ATP synthase subunit O, human; sequence looked up; chain FAKLVRPPVQVYGIEGRYATALYSAASKQNKLEQVEKELLRVAQILKEPKVAASVLNPYVKRSIKVKSLNDITAKERFSPLTTNLINLLAENGRLSNTQGVVSAFSTMMSVHRGEVPCTVTSASPLEEATLSELKTVLKSFLSQGQVLKLEAKTDPSILGGMIVRIGEKYVDMSVKTKIQKLGRAMREIV
UniProt Q00535, sequence (whole entry, looked up): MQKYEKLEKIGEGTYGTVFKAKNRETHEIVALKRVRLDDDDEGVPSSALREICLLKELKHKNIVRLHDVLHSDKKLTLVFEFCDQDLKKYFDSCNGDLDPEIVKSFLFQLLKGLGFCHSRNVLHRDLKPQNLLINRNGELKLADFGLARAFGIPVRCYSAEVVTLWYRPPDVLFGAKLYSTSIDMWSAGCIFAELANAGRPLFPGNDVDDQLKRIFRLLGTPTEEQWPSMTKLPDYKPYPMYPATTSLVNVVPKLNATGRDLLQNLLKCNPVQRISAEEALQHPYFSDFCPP
UniProt P21980, sequence (whole entry, looked up): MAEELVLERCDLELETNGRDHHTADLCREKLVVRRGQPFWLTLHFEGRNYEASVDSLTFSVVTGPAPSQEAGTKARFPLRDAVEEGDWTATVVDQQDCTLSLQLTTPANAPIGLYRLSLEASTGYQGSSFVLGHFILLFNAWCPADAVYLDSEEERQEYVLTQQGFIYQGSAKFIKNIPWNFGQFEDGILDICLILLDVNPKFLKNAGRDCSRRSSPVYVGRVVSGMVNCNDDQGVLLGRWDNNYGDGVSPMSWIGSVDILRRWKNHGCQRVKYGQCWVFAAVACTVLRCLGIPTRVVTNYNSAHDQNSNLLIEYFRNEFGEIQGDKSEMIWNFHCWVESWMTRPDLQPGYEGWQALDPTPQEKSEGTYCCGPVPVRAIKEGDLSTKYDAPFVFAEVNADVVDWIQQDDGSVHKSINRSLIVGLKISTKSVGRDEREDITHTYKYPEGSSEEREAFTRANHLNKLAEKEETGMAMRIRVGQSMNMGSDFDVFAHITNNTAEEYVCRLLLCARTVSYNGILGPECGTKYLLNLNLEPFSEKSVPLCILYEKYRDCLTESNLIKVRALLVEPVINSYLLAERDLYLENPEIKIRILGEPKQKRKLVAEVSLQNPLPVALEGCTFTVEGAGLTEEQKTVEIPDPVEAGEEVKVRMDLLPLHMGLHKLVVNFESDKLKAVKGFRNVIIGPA

Molecule = QINPIGHEY; tested on = Jurkat expressing engineered TCR; test = NFAT-eGFP reporter, fluorescence microscopy; system = peptide; setting = concentration not given, HLA-A*01:01 on EL4 cells; endpoint = GFP-positive cells; value = 0.583%
Molecule = CCUACAUUU (ssRNA); tested on = U2AF2; test = sequencing of bound RNA; system = RNA; setting = motif only; endpoint = Kd; value = 12.4 µM
Molecule = B1 (human P4HA1); tested on = CYB5R4 knockout human cells; test = PP6 interaction, 3xFLAG-PP6C IP-MS; setting = concentration not given; scale = baseline: CYB5R4 KO over parental; endpoint = log2 fold change; value = 1.67
Molecule = YTDIIPYGY; tested on = Jurkat expressing engineered TCR; test = NFAT-eGFP reporter, fluorescence microscopy; system = peptide; setting = concentration not given, HLA-A*01:01 on EL4 cells; endpoint = GFP-positive cells; value = 0.39%
Molecule = GGGAGCAGGAGAGAGGUCAGAUGUUUAGUAUAUACGAGAGAUGUGAACAAUGACCUAUGCGUGCUAGUGUGA (ssRNA; 2'-fluoro pyrimidines); tested on = TGM2 2-687 (Homo sapiens, UniProt P21980); test = SPR; system = RNA; setting = with: MgCl2 5 mM; scale = higher = more binding; endpoint = relative binding; value = -4.5 RU
Molecule = HIDPIGYNY; tested on = Jurkat expressing engineered TCR; test = NFAT-eGFP reporter, fluorescence microscopy; system = peptide; setting = concentration not given, HLA-A*01:01 on EL4 cells; endpoint = GFP-positive cells; value = 0.89%
Molecule = recombinant human interleukin-6; tested on = enteroid monolayers; test = RT-qPCR, measured: ABCC1; setting = 10 ng/mL, 48 h; endpoint = decrease in mRNA level; value = 45 to 50%
Molecule = GTDPIPLGA; tested on = Jurkat expressing engineered TCR; test = NFAT-eGFP reporter, fluorescence microscopy; system = peptide; setting = concentration not given, HLA-A*01:01 on EL4 cells; endpoint = GFP-positive cells; value = 0.496%
Molecule = evodiamine; tested on = HUVEC; test = cytotoxicity; endpoint = IC50; value = 3.7 ± 2.2 µM
Molecule = epoetin alfa; tested on = UT7/EPO; test = RT-qPCR, measured: NFKBIZ; setting = concentration not given, 90 min, normalized to HPRT1; scale = baseline: vehicle; endpoint = mRNA level; value = 2.7 fold
Molecule = AAUUUCUUU (ssRNA); tested on = U2AF2; test = sequencing of bound RNA; system = RNA; setting = motif only; endpoint = Kd; value = 14.4 µM
Molecule = human RGPD5; tested on = CYB5R4 knockout human cells; test = PP6 interaction, 3xFLAG-PP6C IP-MS; setting = concentration not given; scale = baseline: CYB5R4 KO over parental; endpoint = log2 fold change; value = 0.61
Molecule = MTVCNASQRQAHAQATAVSL; tested on = H661; test = phage binding; system = peptide; scale = baseline: targeting over control phage; endpoint = selectivity ratio; value = 2.2 ± 0.5
Molecule = B2 (human AP2A2); tested on = CYB5R4 knockout human cells; test = PP4 interaction, 3xFLAG-PP4C IP-MS; setting = concentration not given; scale = baseline: CYB5R4 KO over parental; endpoint = log2 fold change; value = -0.42
Molecule = Peginesatide; tested on = UT7/EPO; test = tyrosine phosphorylation, LC-MS/MS phosphoproteomics, trypsin, measured: SHC1 tyrosine 349; setting = 10 nM, 15 min, with: 10 U/mL EPO; scale = baseline: vehicle; endpoint = phosphorylation level; value = 10.3 fold
Molecule = B3 (human matrin-3); tested on = CYB5R4 knockout human cells; test = PP6 interaction, 3xFLAG-PP6C IP-MS; setting = concentration not given; scale = baseline: CYB5R4 KO over parental; endpoint = log2 fold change; value = -1.48
Molecule = KEAFWERCLSVINLMSSKMLQINA; tested on = Cyclin-dependent kinase 5, with p25 (CDK5, Homo sapiens, UniProt Q00535); test = phosphotransferase activity, radiometric; system = peptide; setting = concentration not given, 10% DMSO, with: histone substrate; scale = baseline: p5-WT peptide; endpoint = activity change; value = 12%
Molecule = RIDPIPLGM; tested on = Jurkat expressing engineered TCR; test = NFAT-eGFP reporter, fluorescence microscopy; system = peptide; setting = concentration not given, HLA-A*01:01 on EL4 cells; endpoint = GFP-positive cells; value = 0.39%
Molecule = B4 (ATP synthase subunit O, human); tested on = CYB5R4 knockout human cells; test = PP4 interaction, 3xFLAG-PP4C IP-MS; setting = concentration not given; scale = baseline: CYB5R4 KO over parental; endpoint = log2 fold change; value = 0.0255

Repeated from above:
Molecule = RIDPIPLGM; tested on = Jurkat expressing engineered TCR; test = NFAT-eGFP reporter, fluorescence microscopy; system = peptide; setting = concentration not given, HLA-A*01:01 on EL4 cells; endpoint = GFP-positive cells; value = 0.39%
Molecule = B4 (ATP synthase subunit O, human); tested on = CYB5R4 knockout human cells; test = PP4 interaction, 3xFLAG-PP4C IP-MS; setting = concentration not given; scale = baseline: CYB5R4 KO over parental; endpoint = log2 fold change; value = 0.0255
